Experimental data from different studies.
A part holds a random share of what one study measured. Substitutions count along the parent as printed.

Block 1 — technique: RNA Bind-n-Seq; form: RNA; matrix: in vitro; concentration: 365 nM; reference: no-protein control; direction: higher = stronger binding; measurement: RBNS enrichment (R)
Target: RNA binding protein fox-1 homolog 2, RRM domain, GST-SBP tag (RBFOX2, Homo sapiens, UniProt O43251-10, residues 100-194)
Notes: natural RNA segment, single round, ends assumed
Target sequence (chain): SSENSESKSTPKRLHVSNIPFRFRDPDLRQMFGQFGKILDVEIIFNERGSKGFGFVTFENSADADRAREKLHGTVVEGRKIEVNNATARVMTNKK
Sequence = GGGAGUUCUACAGUCCGACGAUCCACCCCUCUCUCUCUCUCAACUUCAGAUGCCUCUGGCUGUUCUCAUGUCUAUAAUAAGAACCUCCCCGCAACCAUACGAAGUAUAACCAUACAUCUAUAGUUCUCCCCCGUGGAAUUCUCGGGUGCCAA; value = 0.818
Sequence = GGGAGUUCUACAGUCCGACGAUCUUUUAAUUUUUAACACCAUGGCACCUUUUGCACAUAACAUGCUUUAGAUUAUAUAUUCCGCACUCAAGGAGUAACCAGGUCGUCCAAGCAAAAACAAAUGGGAAAAUGUCUGGAAUUCUCGGGUGCCAA; value = 1.19
Sequence = GGGAGUUCUACAGUCCGACGAUCUGGGCAAACACUGAAAAAAGUGCCUUACAGUAUUUCUGCUCAUGAAAGAGUUUCACUAUUUUGGAUAUAUUCUAAAGUGGACCUGAGCUAUUUGAGCAAAUAAUGAUAGGUGGAAUUCUCGGGUGCCAA; value = 0.341
Sequence = GGGAGUUCUACAGUCCGACGAUCGCCUCGCUCGUGAACUUCCUGUGGUAACACUUGGGAGCCUGGCCUUUUCCCAGUAUUUCCUGAAUUUGCCCGUGCAGGUGUGUGACCCUCCCUGAGCAUCUGGAGACACCUGGAAUUCUCGGGUGCCAA; value = 1.16

Block 2 — technique: universal PBM; form: double-stranded DNA, one strand shown; matrix: in vitro; concentration: not given; direction: higher = stronger binding; measurement: E-score
Target: Sal-like protein 4, full length isoform B (SALL4, Homo sapiens, UniProt Q9UJQ4-2, residues 1-616)
Notes: 8-mer, flanks averaged, mean of replicates
Target sequence (chain): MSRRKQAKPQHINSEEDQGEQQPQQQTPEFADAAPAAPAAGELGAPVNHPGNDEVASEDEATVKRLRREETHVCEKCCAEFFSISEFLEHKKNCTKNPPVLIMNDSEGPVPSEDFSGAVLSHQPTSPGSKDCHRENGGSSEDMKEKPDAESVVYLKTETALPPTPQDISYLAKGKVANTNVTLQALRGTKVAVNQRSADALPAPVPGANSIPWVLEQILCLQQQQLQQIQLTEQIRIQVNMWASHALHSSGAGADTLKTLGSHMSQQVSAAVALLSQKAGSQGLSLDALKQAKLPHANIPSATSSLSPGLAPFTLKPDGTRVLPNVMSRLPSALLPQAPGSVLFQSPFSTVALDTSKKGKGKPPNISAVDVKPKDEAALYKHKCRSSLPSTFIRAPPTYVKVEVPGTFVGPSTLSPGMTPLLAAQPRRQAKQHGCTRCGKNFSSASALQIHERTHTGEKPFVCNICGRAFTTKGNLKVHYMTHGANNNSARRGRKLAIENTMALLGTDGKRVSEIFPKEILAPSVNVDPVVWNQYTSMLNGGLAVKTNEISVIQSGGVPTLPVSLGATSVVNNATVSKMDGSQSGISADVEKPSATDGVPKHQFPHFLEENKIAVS
Sequence = CAATTATC; value = 0.233
Sequence = CGTCGGCA; value = -0.305
Sequence = CGCTGGTA; value = -0.0801
Sequence = GCATACTA; value = 0.0456
Sequence = AAGCATTA; value = 0.199
Sequence = AGGGATAC; value = 0.0344
Sequence = ACATTAAT; value = 0.322
Sequence = CATTGCAC; value = -0.0237

Block 3 — technique: DHFR PCA, deep sequencing; matrix: yeast; with: (+)-ABA 0.11 µM; reference: wild-type fitted maximum; direction: higher = stronger binding; measurement: relative binding score
Target: ABI1, truncated, D143A, DHFR fusion (Arabidopsis thaliana)
Notes: methotrexate growth selection, single substitutions
Parent: PYL1, truncated, DHFR fusion (Arabidopsis thaliana); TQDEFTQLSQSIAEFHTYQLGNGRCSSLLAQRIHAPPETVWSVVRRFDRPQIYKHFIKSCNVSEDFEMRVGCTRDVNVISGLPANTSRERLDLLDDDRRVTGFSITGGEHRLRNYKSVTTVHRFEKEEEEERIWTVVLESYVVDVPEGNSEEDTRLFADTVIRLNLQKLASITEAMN; partner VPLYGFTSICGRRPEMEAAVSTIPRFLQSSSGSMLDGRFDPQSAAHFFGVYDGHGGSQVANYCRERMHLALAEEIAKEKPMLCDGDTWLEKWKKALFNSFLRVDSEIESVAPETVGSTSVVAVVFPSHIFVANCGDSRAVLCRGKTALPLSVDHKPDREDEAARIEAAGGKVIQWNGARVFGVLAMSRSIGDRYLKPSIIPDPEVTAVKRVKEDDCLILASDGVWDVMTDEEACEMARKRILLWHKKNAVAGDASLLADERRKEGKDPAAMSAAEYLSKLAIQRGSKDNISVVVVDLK
Change = P146G; value = 14.3%
Change = S9E; value = 47%
Change = T173Y; value = -3.72%
Change = N177E; value = 33.1%

Further values, each from its own experiment
Substance = PhoQ, residues 284 288 289 292 302 303 SCCLKL; target = PhoP, residues 12 14 15 18 19 NNFVT (Escherichia coli, UniProt P23836); assay = Sort-seq, measured: YFP reporter; test system = E. coli; setting = PhoQ-PhoP variant library, with: 10 µM Mg2+; how to read = reference: high Mg2+ state, higher = stronger signaling; measurement = fold induction; value = 8.26

A few entries again (block 3):
Change = S9E; value = 47%
Change = T173Y; value = -3.72%
Change = N177E; value = 33.1%
